Measurements of several laboratories.
Every numbered part comes from another study and shows a few of its results, in no order.

Set 1 — method: RNA Bind-n-Seq; form: RNA; sample: in vitro; tested at: 365 nM; reference: no-protein control; reading: higher = stronger binding
Target: RNA binding protein fox-1 homolog 2, RRM domain, GST-SBP tag (RBFOX2, Homo sapiens, UniProt O43251-10, residues 100-194)
Setting: natural RNA segment, single round, ends assumed
Construct (chain): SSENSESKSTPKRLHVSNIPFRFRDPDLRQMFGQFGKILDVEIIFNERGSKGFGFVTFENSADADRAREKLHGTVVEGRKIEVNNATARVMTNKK
Sequence	RBNS enrichment (R)
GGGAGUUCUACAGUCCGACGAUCAAGAACAAAAACUGUAGUGUUUCACCUUUAAAUGCAGUGUUGAAGAGGGAGCCUUUCUCUAAGCCCUGCACUAACCCACUCCUCCCAAGACUCUUGUGGAGUGACAGUUCUGGAAUUCUCGGGUGCCAA	0.212
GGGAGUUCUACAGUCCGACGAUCGGACGAGUUCAGGUUUGUUUUUGCAGCAGAUUCCGUCGUUCUUACUGAGUCUGCAGCGGGGGAGUGAACAAGUGUGCAGAUGUAAGUUCUUACAUGAUAAGCAGAUUGAAUGGAAUUCUCGGGUGCCAA	0.283
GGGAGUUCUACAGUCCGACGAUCUCUGAUUUCAGAUGUAGUCAUUCCAGAACCUUCUCUUUAUGAGUUCACCUGCUAGUACAAUCUCCACAACUUGAAUGGCAUUGGUUGUUCUGUAAUUCCUGCCAAAAGCAUGGAAUUCUCGGGUGCCAA	0.437
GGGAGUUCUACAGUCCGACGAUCAUUCAAGGUCACCAGGUACAGUUGUACAGGUUGUACACUGCAGGAGAGUGCCUGGCAAAAAGAUCAAAUGGGGCUGGGACUUCUCAUUGGCCAACCUGCCUUUCCCCAGAUGGAAUUCUCGGGUGCCAA	0.498
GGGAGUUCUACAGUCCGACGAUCCACCCAGAGGCAUUAACAGGUCCCCAGACUAGGGCCUACACUGAGGGUAGAACCUGGAACCACAGUUGUUGCUGACCUGCUGGAAUGAAGUCAGAGUAUCAUCUAAAGUUUGGAAUUCUCGGGUGCCAA	2.77
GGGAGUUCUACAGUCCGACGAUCAUAUGUAGCUAACAAAUUGACCUAGUUUCUGUACUUUUUUGGUUUUGUACUAAAGUUUAUAGGUCUGUGCCAGCUAGAGAGGAGUUGCUGUCAUUGCUAGUCGUGCUCUAUGGAAUUCUCGGGUGCCAA	0.479
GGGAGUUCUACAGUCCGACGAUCCACCAAGGCAGUAGCUAUGAUUCUAGAAGCUAAGAGGUGUCUAUAGAGCUAGACGGGCUUCUGCAUGUGAAAUGCUGUAUUCCAUAGGAGUUAAAAGUGCUGACUGAGCAUGGAAUUCUCGGGUGCCAA	10.1
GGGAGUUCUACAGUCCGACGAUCUUAUGUAGACAUUGUAAAUAAAUUUUGUGCAAAAAGGACUGGAAAGAUGAACUGUAUUAUUGCAUUUAUUUUGUUUUUUUUUUUGUGAAAGUAGCAGAUUAGUGCAAGGUUGGAAUUCUCGGGUGCCAA	0.758
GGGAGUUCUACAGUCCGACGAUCUUAUGAACCGUUUCCUCUGAGGGCCACCCUUGAUCUCUAGCAGAACAGCAAGCAGAACACCGUGCAUGCUGGCCACAGCAGUGGAGCCAAGUCUCUGCUGGUUACGGAGCUGGAAUUCUCGGGUGCCAA	2.16
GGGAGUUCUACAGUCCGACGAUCGUUCUGUAUAAUUGAUAGUACAAGUGUGGACCCUUAUAUUUCUAACAGUUCAUUGCUUUGGAAUGGCCGUGAAAGAGAUCUAACUGUGGAUGCUUACUGAGGCUUGUAUGUGGAAUUCUCGGGUGCCAA	0.952
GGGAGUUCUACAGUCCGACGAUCUAUUUGGUCUUAACUGGAUUUUAAAGAGUUUGGCGUAUUAGUAGCAUUUAAAGCCAGAUAGGGCACCCUUGCUGUGUCAAUGAGGAAGUUACUGUAAACACAGUGUUCGAUGGAAUUCUCGGGUGCCAA	0.693
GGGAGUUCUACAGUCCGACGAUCUAUCUAUUAAUAUUUAAGACCAGGAAAAAAAAAAAAGAGGCUUAAGAGUAAGCCUGGAAAAUCUCACUUGUUUUCGUAGUAUUGGCUGUAUUUCAGUGCCUCCAGCUUUGUGGAAUUCUCGGGUGCCAA	0.49

Set 2 — method: protein binding microarray; form: double-stranded DNA, one strand shown; sample: in vitro; tested at: not given; reference: not given; reading: higher = stronger binding
Target: Histone acetyltransferase KAT6A, both winged helices, GST fusion (KAT6A, Homo sapiens, UniProt Q92794, residues 1-181)
Setting: 8-mer, flanks averaged, mean of 2 arrays, mostly near background
Residues (chain): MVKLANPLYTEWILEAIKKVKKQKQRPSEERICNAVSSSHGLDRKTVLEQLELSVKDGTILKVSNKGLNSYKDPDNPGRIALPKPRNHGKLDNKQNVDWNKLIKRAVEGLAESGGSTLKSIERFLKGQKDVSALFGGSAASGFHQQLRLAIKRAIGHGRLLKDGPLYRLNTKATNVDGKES
Sequence	E-score
CAAGCCGC	0.224
AGTTACCG	0.113
ATAGCGCG	0.321
CGAAGTCC	0.132
AAGATCGT	0.0763
TCACCGGA	0.0641
AACAGCTG	-0.0591
GATATGAA	0.0035
CTGTACCA	-0.201
AATTGGAC	-0.0873
ACGCCTCT	-0.132
CGGGAGGC	0.154
AAACTACT	-0.0948
GCGCGCTA	0.387
ACTGGCGC	0.148
CCCACTCC	-0.0572
CCCCCGCG	0.283
GTTTATAA	0.102

Set 3 — method: RNA Bind-n-Seq; form: RNA; sample: in vitro; tested at: 200 nM; setting: whole 134-nt RNA, ends assumed; added: 150 mM KCl; reference: input library; reading: higher = stronger binding
Target: Fragile X messenger ribonucleoprotein 1, C-terminal low-complexity region (Fmr1, Mus musculus, UniProt P35922)
Sequence	log2 enrichment
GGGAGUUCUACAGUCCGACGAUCUUUGCUGUUGUUAACCAUCAAGGGACCUUGGAGAGUGGCCACUACACCAGCUUUAUCCGGCAGCACAAAGACCAGUGGUUCAAGUGUGACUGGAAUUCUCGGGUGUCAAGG	-1.1
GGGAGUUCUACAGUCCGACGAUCGUCCUGUGCUACACAUCGUAUGUACCGAAUCGGGGCCCCCGGGCCCCCGGGGCCCCCGGAAAGUAUUAUGUUACGCCGUUCGGAUCUGCAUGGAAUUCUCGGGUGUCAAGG	-0.893
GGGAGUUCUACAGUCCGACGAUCUGGCCCUGGUGGCAUGCGGGGAGGAAGAGGUGGCCUCAUGGAUCGUGGUGGUCCCGGUGGAAUGUUCAGAGAUGGCCGUGGUGGAGACAGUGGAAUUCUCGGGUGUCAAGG	0.223
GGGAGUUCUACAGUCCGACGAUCAAGUCCUGUGCUACACAUCGUAUGUACCGAAUCGGGAAAAGGGAAAAGGAAAAGGGAAAGUAUUAUGUUACGCCGUUCGGAUCUGCACUUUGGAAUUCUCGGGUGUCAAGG	-0.481
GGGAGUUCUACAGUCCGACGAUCUCCUGUGCUACACAUCGUAUGUACCGAAUCGGGGAAAGGGGAAAGGGGAAAAAAAGGGGAAAGUAUUAUGUUACGCCGUUCGGAUCUGCAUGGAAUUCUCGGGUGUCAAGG	0.336
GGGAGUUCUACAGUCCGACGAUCUUUACAAAUAUGCCCAAGACUUCUUGGUGGCUAUUGCAGAGCCAGUGUGCCGACCAACCCAUGUGCAUGAGUACAAACUAACUGCCUACUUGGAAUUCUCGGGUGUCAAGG	0.237
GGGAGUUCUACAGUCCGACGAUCCAAGUCCUGUGCUACACAUCGUAUGUACCGAAUCGGGUUUGGGUUUGGGAAAGGGAAAGUAUUAUGUUACGCCGUUCGGAUCUGCACUUCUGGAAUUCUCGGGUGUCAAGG	0.896
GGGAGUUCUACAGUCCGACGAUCCAAACUUAAAGUCUCCCUUGCUCGGAAGAAGCCUCCAAUGAACAGUAUGCGGGGUGGUCUGCCACCCCGUGAGGGCAGAGGCAUGCCACCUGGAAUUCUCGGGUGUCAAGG	-0.12
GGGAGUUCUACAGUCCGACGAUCUCCUGUGCUACACAUCGUAUGUACCGAAUCGGGGAAAAAAAGGGGAAAAAGGGGUGGGGAAAGUAUUAUGUUACGCCGUUCGGAUCUGCAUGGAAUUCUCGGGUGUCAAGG	0.565
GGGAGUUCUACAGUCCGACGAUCAGUCCUGUGCUACACAUCGUAUGUACCGAAUCGGGGUGGGGAAAGGGGAAAAAGGGGAAAGUAUUAUGUUACGCCGUUCGGAUCUGCACUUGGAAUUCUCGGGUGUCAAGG	0.539
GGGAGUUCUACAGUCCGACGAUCCACAGACAACACGCACCCACACAGACACAGAGGGAAGGGGUUGGGAUAAAGACAGGGUGCACAGCAGGGCGGGGUAGGACCCCAGCCCCUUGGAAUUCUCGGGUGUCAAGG	0.432
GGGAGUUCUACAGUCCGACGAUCGUCCUGUGCUACACAUCGUAUGUACCGAAUCGGGGAAAAAGGAAAAAGGGGAAAAAGGGAAAGUAUUAUGUUACGCCGUUCGGAUCUGCAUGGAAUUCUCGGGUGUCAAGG	0.0159
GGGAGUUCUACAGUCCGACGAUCUGGCCCGCCGUCCUGAGGAAGCUGAGGUUCACUGCGGUGCCCAAGAACCACCAGGCGGUCCGGAACCCGUGAGCGGCUGCCAGGGGCUCUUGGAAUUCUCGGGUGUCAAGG	0.205
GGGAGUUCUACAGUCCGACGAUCUCCUGUGCUACACAUCGUAUGUACCGAAUCGGGGAAAAAGGGAAAAAGGGGAAAAAGGGGAAAGUAUUAUGUUACGCCGUUCGGAUCUGCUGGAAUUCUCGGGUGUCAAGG	0.189

Set 4 — method: protein-binding microarray; form: double-stranded DNA, one strand shown; sample: in vitro; tested at: 0.8 µM; setting: whole 60-bp probe, no competitor; reading: higher = stronger binding
Target: Centromere-binding protein 1, full length, N-terminal tag (CBF1, Saccharomyces cerevisiae, UniProt P17106, residues 1-351)
Chain of UniProt P17106 (whole entry, looked up): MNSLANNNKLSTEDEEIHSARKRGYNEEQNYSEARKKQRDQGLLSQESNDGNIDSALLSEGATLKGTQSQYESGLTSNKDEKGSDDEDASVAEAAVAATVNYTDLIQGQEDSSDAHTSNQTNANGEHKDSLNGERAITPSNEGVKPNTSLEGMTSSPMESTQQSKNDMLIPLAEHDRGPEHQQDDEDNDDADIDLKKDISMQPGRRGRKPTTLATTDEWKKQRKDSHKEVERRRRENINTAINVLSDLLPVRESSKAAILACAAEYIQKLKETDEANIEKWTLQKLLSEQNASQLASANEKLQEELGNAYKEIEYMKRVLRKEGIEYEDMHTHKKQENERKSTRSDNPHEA
Sequence	fluorescence intensity [a.u.]
GAAAGTGGTAAGACCGTCATGATCGCCGCTCACTAGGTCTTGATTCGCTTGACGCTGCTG	478
GAATAACCAGCGTTGCACGCGTCGTGCGGGTTCTAGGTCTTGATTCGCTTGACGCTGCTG	538
GAAGGCATTTTCACTGGTGATGCACGCCCAGCGTAGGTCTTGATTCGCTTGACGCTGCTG	506
GAAATACCTACGTATCTGATGTGTATACTTCTCTAGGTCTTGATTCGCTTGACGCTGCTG	492
CTATGTTTTTTTCATCATGATATCTGTTTTAGGTTCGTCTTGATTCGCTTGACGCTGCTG	610
GAACCTACATTTCCTCTGATGACTGTGATCCTTTAGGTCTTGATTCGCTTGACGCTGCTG	555
CTACACTATTTACATATCGTGAAAATGACATTTTTCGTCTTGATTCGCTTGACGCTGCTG	562
CTATCGGTGTAAAAGCACGTACACCGCGTTCGGTTCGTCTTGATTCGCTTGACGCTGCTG	525
GAAATTCACATGCATCAGTTGAAAGGTATATAATAGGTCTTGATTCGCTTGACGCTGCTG	691
CTAATCCACTATAATCAGCTGTTATGACTTAGCTTCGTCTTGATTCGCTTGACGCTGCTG	593
GAAAAAGTTCAAATCCACGTTATTGAGAGTAGATAGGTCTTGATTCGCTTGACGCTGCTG	548
CTAAAGCCAATCCATCTGATTGGTCATTTTACGTTCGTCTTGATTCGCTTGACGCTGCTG	578
TGTACGAAGCTATATCATGTAACTATAGTAGTTAGGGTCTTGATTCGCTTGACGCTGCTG	510
GAAATATTATTTATGCACGTTGCTCATTTAATTTAGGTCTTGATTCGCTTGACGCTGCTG	896
GAAATACCTTCGTAAAACGTGACGACTTTCATATAGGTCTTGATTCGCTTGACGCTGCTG	1810
CTATATTCACAATGTGACACCAGATAGCTTGGTTTCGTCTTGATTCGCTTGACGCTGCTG	667
CTATAGTATATACGTCACGAATACAGGAACACCTTCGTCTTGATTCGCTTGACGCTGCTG	607

For quick reference, copied from above (set 2):
Sequence	E-score
TCACCGGA	0.0641
AACAGCTG	-0.0591
GATATGAA	0.0035
CTGTACCA	-0.201
